Measurements collected from several papers.
Each numbered part is a random draw from the data of one study; scales do not carry over between parts. Substitutions count along the parent as printed.

Sample 1
Target: Histone acetyltransferase KAT6A, both winged helices, GST fusion (KAT6A, Homo sapiens, UniProt Q92794, residues 1-181)
Technique: protein binding microarray
Molecule type: double-stranded DNA, one strand shown
Sample: in vitro
Tested at: not given
Notes: 8-mer, flanks averaged, mean of 2 arrays, mostly near background
Baseline: not given
Direction: higher = stronger binding
Construct (chain): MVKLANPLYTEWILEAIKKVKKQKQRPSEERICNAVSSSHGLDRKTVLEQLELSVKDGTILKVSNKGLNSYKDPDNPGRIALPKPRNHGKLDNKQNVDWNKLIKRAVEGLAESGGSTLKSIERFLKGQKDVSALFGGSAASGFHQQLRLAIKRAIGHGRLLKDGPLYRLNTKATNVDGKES
Oligonucleotide	E-score
TCCGGGCA	0.036
AAGCTGCA	-0.0395
CACTGATC	-0.149
AAAAGTCC	0.0818
ATGAGGAA	-0.252
CACCTTGG	-0.199
TACCCTGA	-0.0752
TAGCGCGA	0.291
ACAGGATC	-0.209
ACCTAACC	0.0256
TACATGTA	-0.0788
CATGTTTC	0.132
GGGGGCCA	-0.00064
CTTTCCCC	-0.124
GACGTAAC	-0.079
CCCCAGAA	-0.262
CGGTGTAC	0.179
TGGGTTAA	-0.223
AGAGTTAA	-0.271
AGTTTTTA	-0.0759
AAGTGTGA	-0.21
ATATGTCG	0.00334
CTCACGTA	-0.21
CAGCGTCG	0.215

Sample 2
Target: Fragile X messenger ribonucleoprotein 1, C-terminal low-complexity region (Fmr1, Mus musculus, UniProt P35922)
Technique: RNA Bind-n-Seq
Molecule type: RNA
Sample: in vitro
Tested at: 200 nM
Notes: whole 134-nt RNA, ends assumed
Together with: 150 mM LiCl
Baseline: input library
Direction: higher = stronger binding
Each molecule: 7-deaza-guanosine replaces G
Constant ends, left off below: GGGAGUUCUACAGUCCGACGAUC … UGGAAUUCUCGGGUGUCAAGG
Oligonucleotide	log2 enrichment
CACAGACAACACGCACCCACACAGACACAGAGGGAAGGGGUUGGGAUGGGGACAGGGUGCACAGCAGGGCGGGGUAGGACAAAAGCCCCU	-0.0808
UCCUCAAGUCCUGUGCUACACAUCGUAUGUACCGAAUCGGAGGAAAGGAGGAAAGUAUUAUGUUACGCCGUUCGGAUCUGCACUUCCAGC	-2.11
UCAGGAAGUAAAAACAAAUGGAAAUGCUUCGGAUAGUGGCAGGGGUGGGGGUUGCUAAGGAAAGGGUGGGAUGGGAGUGGGUAAAGAGUU	1.06
UCCUGUGCUACACAUCGUAUGUACCGAAUCGGGUUUUUUUGGGAAAAAAAGGGUUUGGGAAAGUAUUAUGUUACGCCGUUCGGAUCUGCA	-2.78
UAACUUUAGAGGAGGAUCUGAUGGAUAUGGCAGUGGACGUGGAUUUGGGGAUGGCUAUAAUGGGUAUGGAGGAGGACCUGGAGGUCGCAA	0.453
UAACUUUAGAGGAGGAUCUGAUGGAUAUGGCAGUGGACGUGGAUUUGGGGAUGGCUAUAAUGGGUAUGGAGGAGGACCUGGAGGGGGCAA	0.892
CAAGUCCUGUGCUACACAUCGUAUGUACCGAAUCGGAAAAGGGAAAAGGGAAAAGGAAAGUAUUAUGUUACGCCGUUCGGAUCUGCACUU	-1.16
UGGGAGGUGGAUUUUGUUUAUUUCUUUAGCUCAUUUCCAGGGGUGGGAAUUUUUUUUUAAUAUGUGUCAUGAAUAAAGUUGUUUUUGAAA	-0.792

Sample 3
Target: UBE2B UBC core domain (UniProt P63146)
Sequence of UniProt P63146 (whole entry, looked up): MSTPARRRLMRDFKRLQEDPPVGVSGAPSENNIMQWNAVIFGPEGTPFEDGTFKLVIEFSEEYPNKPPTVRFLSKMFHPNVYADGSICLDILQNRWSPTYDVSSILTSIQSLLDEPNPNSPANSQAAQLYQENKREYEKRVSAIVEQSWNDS
Technique: yeast two-hybrid
Sample: yeast
Notes: mostly zero background
Baseline: not given
Direction: higher = stronger interaction
B1: TRIM54 RING domain (UniProt Q9BYV2); chain SMDNLEKQLICPICLEMFSKPVVILPCQHNLCRKCANDVFQASNPLWQSRGSTTVSSGGRFRCPSCRHEVVLDRHGV
B2: TRIM22 RING domain (UniProt Q8IYM9); chain VKVDIEKEVTCPICLELLTEPLSLDCGHSFCQACITAKIKESVIISRGESSCPVCQTRFQPGNLRP
B3: RNF183 RING domain (UniProt Q96D59); chain EQQGRELEAECPVCWNPFNNTFHTPKMLDCCHSFCVECLAHLSLVTPARRRLLCPLCRQPTVLASGQP
B4: MYCBP2 RING domain (UniProt O75592); chain TSLKQDADDMCMICFTEALSAAPAIQLDCSHIFHLQCCRRVLENRWLGPRITFGFISCPICKNKINHIVLKD
B5: RNF152 RING domain (UniProt Q8N8N0); chain ETLSQDSLLECQICFNYYSPRRRPKLLDCKHTCCSVCLQQMRTSQKDVRCPWCRGVTKLPPGFS
Sequence	lacZ reporter activity
B1 (TRIM54 RING domain)	0
YCEMGSTFQLCKICAENDKDVKIEPCGHLMCTSCLTAWQESDGQGCPFCRCEIKGTEPII (CBLB RING domain (UniProt Q13191))	0
B2 (TRIM22 RING domain)	0
B3 (RNF183 RING domain)	0
B4 (MYCBP2 RING domain)	0
YPEEVDDDLICHICLQALLDPLDTPCGHTYCTLCLTNFLVEKDFCPMDRKPLVLQHCKK (LNX1 RING domain (UniProt Q8TBB1))	0
QVQSRTKIEECVVCSDKKAAVLFQPCGHMCACENCANLMKKCVQCRAVVERRVPFI (MIB1 RING domain (UniProt Q86YT6))	0
LDAASGHPLVCPLCHGQYERPCLLDCFHDFCTGCLRGRATDGRLSCPLCQHQTLVKGPSG (Rnf207 RING domain (UniProt Q3V3A7))	0
AEADPLGRFTCPVCLEVYEKPVQVPCGHVFCSACLQECLKPKKPVCGVCRSALAPGVRAV (RNF114 RING domain (UniProt Q9Y508))	0
B5 (RNF152 RING domain)	0

Sample 4
Target: ABI1, truncated, D143A, DHFR fusion (Arabidopsis thaliana)
Technique: DHFR PCA, deep sequencing
Sample: yeast
Notes: methotrexate growth selection, single substitutions
Together with: (+)-ABA 58 µM
Baseline: wild-type fitted maximum
Direction: higher = stronger binding
Starting sequence: PYL1, truncated, DHFR fusion (Arabidopsis thaliana); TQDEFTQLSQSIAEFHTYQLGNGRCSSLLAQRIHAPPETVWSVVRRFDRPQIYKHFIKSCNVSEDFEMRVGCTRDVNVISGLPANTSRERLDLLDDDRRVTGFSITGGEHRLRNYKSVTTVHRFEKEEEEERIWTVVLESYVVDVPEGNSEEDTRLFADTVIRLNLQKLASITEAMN; partner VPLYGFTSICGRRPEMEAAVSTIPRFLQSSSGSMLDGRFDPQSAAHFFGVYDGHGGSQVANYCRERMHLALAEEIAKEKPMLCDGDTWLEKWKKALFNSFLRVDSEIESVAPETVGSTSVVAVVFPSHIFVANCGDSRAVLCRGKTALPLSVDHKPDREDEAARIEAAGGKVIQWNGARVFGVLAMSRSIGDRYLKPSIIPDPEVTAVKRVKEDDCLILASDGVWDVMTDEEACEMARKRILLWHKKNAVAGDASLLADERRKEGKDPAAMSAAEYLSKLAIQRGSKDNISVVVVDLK
Substitution	relative binding score [%]
G148W	37.1
G81Q	7.5
T39W	70.9
L94K	9.32
S104G	5.31
L166A	4.85
E139V	79.7
L166Y	-8.26
E109P	29.3
G108K	7.06
R24W	42.3
R49L	64.8
M68Q	76.5
T120K	-1.4
T101M	90
E127Q	95
V40R	-7.8
E64M	76.3
I33T	18.7
K116T	84.6

Excerpt of the above (sample 1):
Oligonucleotide	E-score
CTTTCCCC	-0.124
GACGTAAC	-0.079
CCCCAGAA	-0.262
